Results collected from several papers.
Protocols differ between the studies behind these lines. Several values in a cell are separate wells, animals, samples, runs or records. ± marks the error that the study gave. Values after ≈ are worked out from the molar mass of the structure shown.

CO[C@@H]1[C@@H](OC(N)=O)[C@@H](O)[C@H](Oc2ccc3c(O)c(NC(=O)c4ccc(O)c(CC=C(C)C)c4)c(=O)oc3c2C)OC1(C)C has a colony count of 0.55 (HCT-116 BRCA2-/-; 200 µM, replicate 1).
For Cc1cc(NC2CCN(C)CC2)ccc1-c1cc2c(N3CCC[C@H](C(=O)NCc4ccc(OC(F)(F)F)cc4)C3)ncnc2[nH]1, the inhibition was 86.9% (KARPAS-299; cell growth or viability, MTT; 1 µg/mL, 72 h).
The Emax of CCn1nc(Cl)c2c1-c1cnc(N)c(c1)O[C@H](C)c1cc(F)ccc1-c1nn(C)cc1C2 is reported as 99.8% (Ba/F3 EML4-ALK variant 1 S1206Y; cell viability).
The reporter activity of C=C1C[C@]2(C(=O)OC)C=C(C(=O)Nc3cccc(C(=O)Nc4ccc(Nc5nccc(-c6cccnc6)n5)c(C)c4)c3)C(=O)[C@H]1C2 is reported as 0.0679 (HEK293 AP1 reporter cells; AP-1 reporter gene, inhibitor; 10 µM, 6 h, unit not given, together with: PMA; relative to: PMA alone).
Cc1cc(Cl)cc(-c2ccnc3cc(CN4C(=O)C5C(C4=O)C5(C)C)sc23)c1C[C@@H]1CNCCO1 (stereo partly shown): “G1 phase cells” 69.9% (CHP-212 resistant; PI flow cytometry; 0.1 µM, 24 h).
With CCN(C(=O)c1cc(F)ccc1Oc1nncnc1N1CCC2(C1)CN([C@H](CCCN(C)CCOC)C(C)C)C2)C(C)C the GI50 was greater than 10 µM (Kasumi 1; cell growth or viability; 72 h).
Under “log2 fold change”, Cc1ncsc1-c1ccc(C(C)NC(=O)C2CC(O)CN2C(=O)C(NC(=O)CCCCCCCCCCN2CCCC(Nc3ncc(Cl)c(Nc4ccccc4S(=O)(=O)C(C)C)n3)C2)C(C)(C)C)cc1 (stereo not shown) is recorded as -1.32 (22Rv1; RNA-seq, refers to: SCYL3 mRNA; concentration not given; relative to: DMSO).
Cc1ccc(-n2cc(CSc3nc4ccccc4n3Cc3cn(-c4ccc(C)cc4)nn3)nn2)cc1 gave a viability of 12.2% (MDA-MB-231; MTT; 62.5 ppm).
The fold change of Cn1c(=O)n(C2CCC(=O)NC2=O)c2ccc(C3CCN(CC(=O)Nc4cccc(CS(=O)(=O)N5CC[C@H](Nc6cccc(-c7sc(C(=O)O)c(OCC(=O)O)c7Cl)c6)CC5(C)C)c4)CC3)cc21 (stereo partly shown) is reported as 5.65 and 5.44 and 5.2 and 5.37 and 5.21 and 5.17 (B16-F10; HTRF, refers to: phospho-STAT1 Tyr701; 0.123 µM, together with: IFN-γ; relative to: DMSO).
With N#Cc1cccc(/C=C/C(=O)c2ccc(O)cc2)c1 the fold change was 0.008 (U-87 MG; refers to: METTL12; concentration not given; relative to: untreated).
For CCOc1cncc(-c2ccc(NC(=O)C3(c4ccnc(NS(=O)(=O)C5CC5)n4)CCOCC3)nc2)n1, the IC50 was 0.132 µM (lung cancer; cell viability, CellTiter-Glo; DMSO 0.1%; 72 h, line code 2478).
With O=C(N1CCCC1)n1cc(-c2ccc(-c3ccccc3)cc2)nn1 the SILAC ratio was 1.22 (mouse T cells; N-terminal labelling proteomics, refers to: UQCRH N-terminal peptides; 0.001 µM, 6 h; relative to: DMSO).
CN(C)Cc1nc(Nc2ccc(-c3cnc4cc(F)ccn34)c3c2C(=O)NC3)ccc1C1CCOC1 (stereo not shown) has an EC50 of 0.016 µM (human CD4 T cells; cytokine induction, refers to: GM-CSF; together with: anti-CD3/CD28).
For COc1ccccc1-c1ccncc1C(=O)Nc1nnc(OCc2ccc(Cl)cc2)s1, the colony survival was 0% (PEO1 BRCA2-mutant; 1.00 µM, together with: olaparib 0.5 µM).
For COc1ccc(CNc2ccc3c(c2)S(=O)(=O)C=C3)cc1, the spheroid area was 0.98 ± 0.14 mm² (U-87 MG spheroids; Matrigel invasion; 1 µM, 3 days).
COc1cc(N2CCN(C(=O)C3CCCN3)CC2)ccc1Nc1ncc(Cl)c(Nc2ccccc2P(C)(C)=O)n1 (stereo not shown) — result for “G1 phase cells”: 85.7% and 85.8% and 88% (NCI-H3122; flow cytometry; 500 nM, 24 h).
The IC50 of CC(C)c1ccc(N(C)c2ccc3c(c2)OCC[C@H]3CNc2cnccc2C(=O)O)cc1 is reported as 0.013 µM (HCC1806; cell growth or viability, ATP luminescence; 7 days).
For CCN(CC)CC(=O)Nc1cccc(-n2cc(-c3ccc4ccc(-c5cn(-c6cccc(NC(=O)CN(CC)CC)c6)nn5)cc4c3)nn2)c1, the fold regulation was -1.34 (RCC4; PCR angiogenesis array, refers to: ITGB3; 5 x IC50, 4 h, normoxia; relative to: untreated).
For COc1ccc(Br)c2c1OC1=C(C(=O)CCC1)C2c1c[nH]c2ccccc12 (stereo not shown), the IC20 was 51.5 mg/L (≈ 121 µM) (3T3-L1; cell growth or viability, MTT; 72 h).
The GFP-positive cells of CCN(CC)CCNC(=S)Nc1ccc2nc(N3CCN(CC)CC3)cc(C)c2c1 is reported as 6.28% (U2OS SSA-GFP reporter; single-strand annealing, flow cytometry; 10 µM).
COc1cccc(OC)c1-c1cc(C(=O)NC2(C(=O)O)C3CC4CC(C3)CC2C4)nn1-c1ccc(C(=O)N(C)CCOCCOCCN(C)C(=O)[C@H](CCCCNC(=O)[C@H](CC(C)C)NC(=O)C2OC2C(=O)O)NC(=O)CN2CCN(CC(=O)[O-])CCN(CC(=O)[O-])CCN(CC(=O)[O-])CC2)cc1C(C)C.[177Lu+3] (mixture of isomers) gave a surface-bound fraction of 0.71 ± 0.05% (HT-29; concentration not given, 240 min; relative to: added activity).
CN1CCCNC(=O)c2cccc(c2)C(=O)NCCCN(C)CCCNc2cccc3c2C(=O)c2cccc(c2C3=O)NCCC1 — result for “log2 fold change”: -0.365 (SAS; RNA-seq, refers to: TES mRNA; 1 µM, 6 h; relative to: untreated cells).
For C=CC(=O)N1[C@@H](c2ccc3c(c2)OCO3)c2[nH]c3ccccc3c2C[C@H]1C(=O)NC1CC1, the neuron degeneration was 83.9% and 80.9% (rat DRG neurons; 0.1235 µM, 48 h, together with: vincristine 40 nM).
For CCCCCCC(=O)[O][Pt]([NH2])([NH2])([Cl])([Cl])[O]C(=O)CCC(C)C1CCC2C3CCC4CC(O)CCC4(C)C3CCC12C (stereo not shown), “cells in G2 phase” read 28.7% (PC-3; PI flow cytometry; 2 µM, 48 h).
COC(=O)c1cc(NC2=NC(=O)C(=Cc3ccc(N(C)C)cc3)S2)ccc1OC(C)=O has a metabolite level of 0.09 fold change (MCF7; GC-MS, refers to: L-Isoleucine; 1 µM; relative to: DMSO).
The Emax of O=S(=O)(C1CC2OC1C(c1ccc(O)cc1)=C2c1ccc(O)cc1)N1CCc2ccccc21 (stereo not shown) is reported as 10% (MCF7 3xERE-luc, steroid-deprived; ERE luciferase reporter, agonist; relative to: vehicle).
COc1cc(/C=C2\CNC/C(=C\c3cc(Cl)c(O)c(OC)c3)C2=O)cc(Cl)c1O — result for “Nrf2 protein level”: “increased” (BV-2; Western blot; concentration not given, together with: LPS; relative to: LPS alone).
C=C1C(=O)OC2C1CCC(C)(O)C13C=CC(C)(C21)C1(C3)C(=O)OC2C3C(C)C(=O)CC3C(=C)CC(OC(C)=O)C21 (stereo not shown): mitochondrial content “increased” (AML12; MitoTracker Green; concentration not given, together with: palmitate/oleate).
For Cn1ncc(-c2ccc3c(=O)[nH]nc(CN)c3c2)c1-c1c(F)c(Cl)cc(OC2CC2)c1C#N, the IC50 was 0.06 µM (SU.86.86; cell viability, inhibitor, CellTiter-Glo; 120 h, baseline-subtracted).
O=C(C[Se]C(=O)c1cc2ccccc2s1)Nc1cccc(C(F)(F)F)c1 gave a GI50 of 1.59 µM (NCI60 CNS cancer panel; five-dose screen).
With C=C1C(=O)OC2C1CCC(C)(O)C13C=CC(C)(C21)C1(C3)C(=O)OC2C3C(C)=CC(=O)C3C(C)CC(OC(C)=O)C21 (stereo not shown) the maximum inhibition was 71.4 ± 5.23% (AML12 mouse hepatocytes; lipid accumulation, Nile Red staining; maximum safe concentration, 24 h, together with: palmitic acid/oleic acid).
For CNS(=O)(=O)Nc1nccc(Cc2c(C)c3ccc(Oc4ncccc4F)cc3oc2=O)c1F, the IC50 was 0.00231 µM (NCI-H441; cell viability; 7 days).
Cn1ncc2cc(-c3cncc(Cl)c3N3CCC4(CCNC4=O)CC3)ccc21: “log2 fold change” -1.01 (LS174T; gene expression, microarray, refers to: JAK3 mRNA; concentration not given, 4 h; relative to: untreated cells).
COc1ccc(NC(=O)c2ccc3[nH]c(-c4ccc(N(C)C)cc4)nc3c2)cn1 has an extracellular ATP of 2.91 (HCT-116; 6 h, unit not given; relative to: DMSO).
